Results gathered from unrelated publications.
Each line is one published result; not all experiments were run side by side. “And” joins repeats or separate records; there may be more than shown. Non-standard residues stand in square brackets, D forms with d. No end group written: not given here. *: point of attachment.
B1: UGT1A9 (Homo sapiens, UniProt O60656); chain GKLLVVPMDGSHWFTMRSVVEKLILRGHEVVVVMPEVSWQLGRSLNCTVKTYSTSYTLEDLDREFKAFAHAQWKAQVRSIYSLLMGSYNDIFDLFFSNCRSLFKDKKLVEYLKESSFDAVFLDPFDNCGLIVAKYFSLPSVVFARGILCHYLEEGAQCPAPLSYVPRILLGFSDAMTFKERVRNHIMHLEEHLLCHRFFKNALEIASEILQTPVTEYDLYSHTSIWLLRTDFVLDYPKPVMPNMIFIGGINCHQGKPLPMEFEAYINASGEHGIVVFSLGSMVSEIPEKKAMAIADALGKIPQTVLWRYTGTRPSNLANNTILVKWLPQNDLLGHPMTRAFITHAGSHGVYESICNGVPMVMMPLFGDQMDNAKRMETKGAGVTLNVLEMTSEDLENALKAVINDKSYKENIMRLSSLHKDRPVEPLDLAVFWVEFVMRHKGAPHLRPAAHDLTWYQYHSLDVIGFLLAVVLTVAFITFKCCAYGYRKCLGKKGRVKKAHKSKTH
B2: Adgrl3 199-495 (Mus musculus, UniProt Q80TS3); sequence looked up; chain KVFLCPGLLKGVYQSEHLFESDHQSGAWCKDPLQASDKIYYMPWTPYRTDTLTEYSSKDDFIAGRPTTTYKLPHRVDGTGFVVYDGALFFNKERTRNIVKFDLRTRIKSGEAIIANANYHDTSPYRWGGKSDIDLAVDENGLWVIYATEQNNGKIVISQLNPYTLRIEGTWDTAYDKRSASNAFMICGILYVVKSVYEDDDNEATGNKIDYIYNTDQSKDSLVDVPFPNSYQYIAAVDYNPRDNLLYVWNNYHVVKYSLDFGPLDSRSGPVHHGQVSYISPPIHLDSELERPPVRGI

Molecule	tested on	assay	system	conditions	quantity	value
B1 (UGT1A9)	O=C(O)/C=C/c1ccc(O)c(O)c1	steady-state kinetics	–	pH 7.4, 37 °C	Km	1010 µM and 564 µM
ARTKQTARKSTG (Histone H3.1 2-13 (Homo sapiens, UniProt P68431); sequence looked up)	CHD3 373-427 (Homo sapiens, UniProt Q12873)	fluorescence titration	peptide	pH 7.5, 25 °C, NaCl 150 mM, apparent	Kd	75000 nM
PAKKSEELVAEAHNLSTLLENAIQDTVREQDQAFTALDWSWLQTE (IKBKB 701-745 C716S/S733A (Homo sapiens, UniProt O14920); sequence looked up)	IKBKG 2-419 C11A/C76A/C95A/C131A/C167A (Homo sapiens, UniProt Q9Y6K9)	competition with labelled peptide, fluorescence polarisation	–	pH 7.4	Kd	6.2 nM
{FITC}-PAKKSEELVAEAHNLSTLLENAIQDTVREQDQSFTALDWSWLQTE (IKKβ 701-745 C716S (UniProt O14920); FITC label; FITC = O=C1OC2(c3ccc(O)cc3Oc3cc(O)ccc32)c2ccc(NC(=S)*)cc21; sequence looked up)	IKBKG C11A/C54A/C76A/C95A/C131A/C167A/C347A (Homo sapiens, UniProt Q9Y6K9)	fluorescence polarisation	peptide	pre-treatment not stated	Kd	52 nM
B2 (Adgrl3 199-495)	FLRT3 LRR domain 29-386, N-linked glycosylation (Mus musculus, UniProt Q8BGT1)	ITC	–	pH 7.0, 25 °C, NaCl 150 mM	Kd	16.9 nM and 17 nM
ART[Lys(Me3)]QTARKSTG (histone H3 peptide; K4me3; Lys(Me3) = C[N+](C)(C)CCCC[C@H](N)C(=O)O)	KDM4A 895-1011 (Homo sapiens, UniProt O75164)	ITC	peptide	–	Kd	1100 nM
cdc12 fragment I1063A (Schizosaccharomyces pombe) (sequence not shown)	ACTA1 filaments (UniProt P68135)	pyrene-actin assay	–	barbed ends, rate followed not shown, added: Mg-ATP-actin	Kd	10.6 nM
MGDSILSQAEIDALLN (fliM residues 1-16 (Escherichia coli))	cheY 2-129 E89K (Escherichia coli, UniProt P0AE67)	fluorescence titration	peptide	pH 7.0, one-site model	Kd	230000 nM
PPP1CB (Homo sapiens, UniProt P62140)	SHOC2 (Homo sapiens, UniProt Q9UQ13)	BLI	–	pH 7.5, 30 °C	Kd	41800 nM
THBS1 fragment (Homo sapiens)	pad-2 40-424 R298K/R299K (Caenorhabditis elegans, UniProt Q8WR51)	ITC	–	25 °C, added: GDP	Kd	1030 nM
{FITC}-SARWRFPARPGTTGGGGGGGRRGLGGAPRQRVPALLLPPGY (KMT2A 4-43 C-A; N-terminal FITC; FITC = O=C1OC2(c3ccc(O)cc3Oc3cc(O)ccc32)c2ccc(NC(=S)*)cc21)	MEN1 M327I (Homo sapiens, UniProt O00255-1)	fluorescence polarisation	peptide	–	Kd	0.91 nM
